Published values pooled from the literature.
± marks the error that the study gave.

C[C@@]12C[C@@]3(O)O[C@@H](O1)[C@]1(COC(=O)c4ccccc4)[C@H]3C[C@@]12O[C@@H]1O[C@H](CO)[C@@H](O)[C@H](O)[C@H]1O  accuracy (extracted rat plasma, autosampler; 11250 ng/mL, 24 h, 4 °C, post-preparative stability, high QC): 100 % nominal
CC(C)(S)[C@@H](N)C(=O)O  EC20 (mitochondrial swelling; BALB/cByJ female mouse liver mitochondria; 30 min, with: succinate + rotenone; baseline: CaCl2 maximal swelling): > 400 µM
Nc1nc(NC2CC2)c2ncn([C@H]3C=C[C@@H](CO)C3)c2n1  CL/F (HIV-infected children and adolescents, Tanner stage 3-5, plasma; oral, 8 mg/kg): 18.4 mL/min/kg
CC(C)NCC1CCc2cc(CO)c([N+](=O)[O-])cc2N1 (stereo not drawn)  intrinsic clearance (mouse liver microsomes; 1 µM, pH 7.4, 1.0 mg protein/mL): 100 µL/min/mg
Cn1c(-c2ccc(C(N)=O)cc2F)nnc1C(C)(C)Oc1c(F)cc(Cl)cc1F  AUC(0-tau) mean (healthy young Japanese subjects, plasma; oral, 50 mg once daily, day 18, 14 days dosing): 7920 ng·h/mL
CCN(CC)CC(=O)Nc1c(C)cccc1C  EC20 (mitochondrial swelling; BALB/cByJ female mouse liver mitochondria; 30 min, with: succinate + rotenone; baseline: CaCl2 maximal swelling): > 800 µM
CC(C)C[C@H](NC(=O)[C@@H](Cc1c[nH]c2ccccc12)NC(=O)[C@H](Cc1ccc(O)cc1)NC(=O)[C@H](CO)NC(=O)[C@H](Cc1c[nH]c2ccccc12)NC(=O)[C@H](Cc1c[nH]cn1)NC(=O)[C@@H]1CCC(=O)N1)C(=O)N[C@@H](CCCNC(=N)N)C(=O)N1CCC[C@H]1C(=O)NCC(N)=O  degradation (LC-MS/MS; Sprague-Dawley rat skin homogenate; 5 min, pH 7.4, 37 °C): 26.2 ± 5.74%
COc1cccc(-c2ccc(NC(=O)C3=C(C(=O)O)CCC3)c(F)c2)c1  AUC(0-24h) (human, male, fed, plasma; oral, 10 mg, single dose, geometric mean): 24200 ng·h/mL
[2H]C([2H])([2H])Oc1cc2c(cc1OC([2H])([2H])[2H])C1CC(=O)C(CC(C)C)CN1CC2 (stereo not drawn)  dose-normalized AUC(0-t) (refers to: deuterated total (α+β)-HTBZ; healthy human volunteers, plasma; oral, 6 mg single dose, standard meal): 19.1 ng·h/mL
CCCC[C@H](NC(C)=O)C(=O)N[C@H]1CCC(=O)NC[C@@H](C(=O)N[C@@H](Cc2c[nH]c3ccccc23)C(N)=O)NC(=O)[C@H](CCCNC(=N)N)NC(=O)[C@@H](Cc2ccccc2)NC(=O)[C@H](Cc2c[nH]cn2)NC1=O  Cmax (CD Sprague-Dawley rat, male, plasma; subcutaneous, 25.0 mg/kg/day, day 1): 666 ng/mL
O=C(O)[C@H](c1ccccc1Cl)N1CCc2sccc2C1  deviation from nominal (HPLC-MS/MS; feline EDTA plasma; 48 h, -80 °C, storage stability): -10%
COc1ccc(OCC2=C(C(F)F)C(=O)c3ccccc3C2=O)cc1C(F)(F)F  cathodic peak potential (cyclic voltammetry; DMSO; first wave, vs Ag/AgCl): -0.326 V
CCCOC(=O)c1ccc(O)cc1  EC20 (cytochrome c release, ELISA; BALB/cByJ female mouse liver mitochondria; 30 min; baseline: alamethicin maximal release): > 800 µM
CC[C@H](C)[C@H](NC(=O)[C@H](CCCNC(=N)N)NC(=O)[C@@H](NC(=O)[C@H](CO)NC(=O)[C@@H](NC(=O)[C@H](CCC(N)=O)NC(=O)[C@H](CS)NC(=O)[C@H](CCCCN)NC(=O)[C@@H](N)CCCNC(=N)N)[C@@H](C)CC)C(C)C)C(=O)N[C@@H](CCCNC(=N)N)C(=O)N[C@@H](CC(N)=O)C(=O)N[C@@H](CCCNC(=N)N)C(=O)N[C@@H](CCCNC(=N)N)C(=O)N[C@@H](C)C(=O)N[C@@H](CC(N)=O)C(=O)N[C@H](C(=O)N[C@@H](CCCCN)C(=O)N[C@H](C(=O)N[C@@H](CO)C(=O)N[C@@H](CS)C(=O)N[C@@H](CC(N)=O)C(=O)O)[C@@H](C)CC)[C@@H](C)CC  single disulfide form (LC-MS; PBS; 0.1 mg/mL): 66%
LEQKAASCHNSYIVLAIENSFMTSFSK  ellipticity (peptide, acetonitrile/water 50:50; 200 µg/mL, 25 °C, 205-225 nm; baseline: native peptide): decreased
Nc1ccn([C@@H]2O[C@H](CO)[C@@H](O)C2(F)F)c(=O)n1  Vd (male BALB/c mouse, plasma; intravenous, 38 µmol/kg): 0.03 L
NCCCC[C@@H]1NC(=O)[C@@H](Cc2c[nH]c3ccccc23)NC(=O)[C@H](c2ccccc2)NC(=O)[C@@H]2C[C@@H](OC(=O)NCCN)CN2C(=O)[C@H](Cc2ccccc2)NC(=O)[C@H](Cc2ccc(OCc3ccccc3)cc2)NC1=O  alpha half-life (radioimmunoassay; healthy human male volunteers, plasma; subcutaneous, 10 µg): 2 ± 0.5 h
COc1cc2ncnc(Nc3ccc(F)c(Cl)c3)c2cc1NC(=O)/C=C/CN1CCCCC1  IC50 (poziotinib M1 formation, inhibitor; human liver microsomes; 50 min, pH 7.4, with: poziotinib 100 µM): 30.5 µM
COc1cc(/C=C/C(=O)OC2C(O)CC(O)(C(=O)O)CC2O)ccc1O (stereo not drawn)  mean concentration (human, fasted baseline, cerebrospinal fluid): 1.8 nM
O=C(/C=C/c1ccc(O)c(O)c1)c1ccc(O)cc1O  EC20 (cytochrome c release, ELISA; BALB/cByJ female mouse liver mitochondria; 30 min; baseline: alamethicin maximal release): > 200 µM
COc1cc2c(cc1OC)CN(CCc1ccc(NC(=O)c3cc(OC)c(OC)cc3NC(=O)c3cnc4ccccc4c3)cc1)CC2  brain concentration (Wistar Unilever rat; intravenous, 15 mg/kg, 3 h): 4130 ± 1640 ng/mL
CC[C@@H]1CN(C(=O)NCC(F)(F)F)C[C@@H]1c1cnc2cnc3[nH]ccc3n12  pharmacokinetic parameters (population pharmacokinetic model; human; with: CYP3A, CYP2D6 inhibitors, pH modifiers): no effect
O=c1[nH]c(=O)c(Cc2cccc(C(F)(F)F)c2)c([C@H]2CC[C@H](c3ccccc3)CC2)[nH]1  Cmax (human, plasma; oral, 900 mg once daily, day 1, fasted, geometric mean): 423 ng/mL
CC(C)[C@H](NC(=O)[C@@H]1CCCN1C(=O)[C@H](CCCNC(=N)N)NC(=O)[C@H](CS)NC(=O)[C@H](Cc1c[nH]c2ccccc12)NC(=O)[C@H](CCCNC(=N)N)NC(=O)[C@@H](Cc1ccccc1)NC(=O)[C@H](Cc1c[nH]cn1)NC(=O)[C@H](CCC(=O)O)NC(=O)[C@H](CS)NC(=O)[C@H](CS)NC(=O)[C@H](CCCCN)NC(=O)[C@@H]1CC(=O)N[C@@H](CCCNC(=N)N)C(=O)N[C@@H]([C@@H](C)O)C(=O)N[C@@H](CC(=O)O)C(=O)N[C@H](Cc2ccc(O)cc2)C(=O)N1)C(N)=O [technetium-99m labelled]  uptake ratio (C57 mouse, female, B16/F1 melanoma; intravenous, 2 h, with: NDP-MSH 10 µg co-injected; baseline: tumour over lung): 2.42
COC(=O)C[C@](O)(CCCC(C)(C)O)C(=O)O[C@@H]1C(OC)=C[C@]23CCCN2CCc2cc4c(cc2[C@H]13)OCO4  tissue concentration (CD1 mouse, brain; oral, 1 mg/kg, 2 h, below quantification limit 1.00 ng/mL): not detected
CN1CCN(c2ccc3nc(-c4c(N)c5c(F)cccc5[nH]c4=O)[nH]c3c2)CC1  AUC(0-24 h) (human, plasma; oral, dose not given, normalised to 200 mg dose): 3860 ± 2180 ng·h/mL
O=C(Cc1cccc(OC(F)(F)F)c1)Nc1ccc(CCCCc2nnc(NC(=O)Cc3ccccn3)s2)nn1  AUC(0-8h) (human patients, plasma; oral, 100 mg three times daily fasted, cycle 1 day 15 steady state): 2150 ng·h/mL
CS(=O)(=O)n1cc2c(n1)CN([C@H]1CO[C@H](c3cc(F)ccc3F)[C@@H](N)C1)C2  Ctrough (healthy Japanese men, plasma; oral, 50 mg once weekly, day 15): 27.9 nM
Cc1cn([C@H]2C[C@H](N=[N+]=[N-])[C@@H](CO)O2)c(=O)[nH]c1=O  EC20 (cytochrome c release, ELISA; BALB/cByJ female mouse liver mitochondria; 30 min; baseline: alamethicin maximal release): > 200 µM
Cc1ccc(NC(=O)c2ccc(CN3CCN(C)CC3)cc2)cc1Nc1nccc(-c2cncc(-c3oncc3C)c2)n1  AUC(0-tau) (Parkinson's disease patients, plasma; oral, 100 mg once daily, day 7, 7-day dosing, mean): 45700 ng·h/mL
CCc1oc2cc(OC)c(Br)cc2c1C(=O)c1cc(Br)c(O)c(Br)c1  microsomal CLint (metabolic stability; Sprague-Dawley rat, liver microsomes; 1 µM, pH 7.4): 24.8 µL/min/mg
O=C(O)c1cn(C2CC2)c2cc(N3CCNCC3)c(F)cc2c1=O  EC20 (mitochondrial swelling; BALB/cByJ female mouse liver mitochondria; 30 min, with: succinate + rotenone; baseline: CaCl2 maximal swelling): > 400 µM
Cc1cc(C)c2c(c1)[C@@H](N(Cc1cc(C(F)(F)F)cc(C(F)(F)F)c1)c1nnn(C)n1)CCCN2C[C@H]1CC[C@H](C(=O)O)CC1  AUC(0-tau) at steady state (human, dyslipidemic patients, plasma; oral, 100 mg daily, geometric mean, with: simvastatin): 5620 ng·h/mL
CN(C)C/C=C/C(=O)Nc1cc2c(Nc3ccc(F)c(Cl)c3)ncnc2cc1O[C@H]1CCOC1  Vz/F at steady state (human, plasma; oral, 40 mg once daily, day 27, geometric mean): 3150 L
Cc1cc(NS(=O)(=O)c2ccc(N)cc2)no1  EC20 (cytochrome c release, ELISA; BALB/cByJ female mouse liver mitochondria; 30 min; baseline: alamethicin maximal release): > 400 µM
COc1ccc2nc([S@@+]([O-])Cc3ncc(C)c(OC)c3C)[nH]c2c1  adverse events (human healthy; 40 mg, infections and infestations): 0%
CNS(=O)(=O)Cc1ccc2[nH]cc(CCN(C)C)c2c1  log intrinsic permeability (in situ brain perfusion; rat; no efflux inhibition): -5.06
CN[C@H](CC(C)C)C(=O)N[C@H]1C(=O)N[C@@H](CC(N)=O)C(=O)N[C@H]2C(=O)N[C@H]3C(=O)N[C@H](C(=O)N[C@H](C(=O)O)c4cc(O)cc(O)c4-c4cc3ccc4O)[C@H](O)c3ccc(c(Cl)c3)Oc3cc2cc(c3O[C@@H]2O[C@H](CO)[C@@H](O)[C@H](O)[C@H]2O[C@H]2C[C@](C)(N)[C@H](O)[C@H](C)O2)Oc2ccc(cc2Cl)[C@H]1O  AUC(0-last) (microdialysis; Danish Landrace pigs, cortical bone; intravenous, 1000 mg, 100 min infusion, with: meropenem): 1360 µg·min/mL
Cn1cnc2c1c(=O)[nH]c(=O)n2C  mean concentration (human, fasted baseline, cerebrospinal fluid): 348 nM
CCCCCCCCCCCCNC  in vivo intrinsic clearance (liver S9 substrate depletion; rainbow trout liver S9; six-surfactant mixture): 42 mL/h/g liver
CC(C)(Oc1ccc(C2CC2(Cl)Cl)cc1)C(=O)O (stereo not drawn)  body weight (female Sprague-Dawley rat; oral, 7.5 mg/kg/day, 21 days): 231 ± 9 g
CCCC[C@@H]1NC(=O)[C@@H](NC(=O)[C@H](CCC(=O)O)NC(=O)CNC(=O)CN2CCN(CC(=O)O)CCN(CC(=O)O)CCN(CC(=O)O)CC2)CCCCNC(=O)C[C@@H](C(N)=O)NC(=O)[C@H](C(C)C)NC(=O)[C@@H]2CCCN2C(=O)[C@H](CCCNC(=N)N)NC(=O)CNC(=O)[C@H](Cc2c[nH]c3ccccc23)NC(=O)[C@H](CCCNC(=N)N)NC(=O)[C@@H](Cc2ccccc2)NC(=O)[C@H](Cc2c[nH]cn2)NC(=O)[C@H](CCC(=O)O)NC1=O [indium-111 labelled]  tissue uptake (C57 mice, B16/F10 lung metastatic melanoma, bone; intravenous, 0.037 MBq, 2 h): 0.02 ± 0.01 %ID/g
CN[C@H]1C(=O)N[C@@H]2Cc3ccc(cc3)Oc3cc4cc(c3O[C@@H]3O[C@H](C(=O)O)[C@@H](O)[C@H](O)[C@H]3NC(=O)CCCCCCCCC(C)C)Oc3ccc(cc3Cl)[C@@H](O)[C@@H]3NC(=O)[C@H](NC(=O)[C@@H]4NC(=O)[C@@H](NC2=O)c2cc(cc(O)c2Cl)Oc2cc1ccc2O)c1ccc(O)c(c1)-c1c(O[C@H]2O[C@H](CO)[C@@H](O)[C@H](O)[C@@H]2O)cc(O)cc1[C@@H](C(=O)NCCCN(C)C)NC3=O  clearance (healthy Japanese subjects, plasma; intravenous infusion, 500 mg, 30 min infusion): 42.2 mL/h
Cc1cn(-c2cc(NC(=O)c3ccc(C)c(Nc4nccc(-c5cccnc5)n4)c3)cc(C(F)(F)F)c2)cn1  EC20 (cytochrome c release, ELISA; BALB/cByJ female mouse liver mitochondria; 30 min; baseline: alamethicin maximal release): > 400 µM
CCN(CC)CCNC(=O)c1c(C)[nH]c(/C=C2\C(=O)Nc3ccc(F)cc32)c1C  median trough plasma concentration (human, plasma; oral, 20 mg/m2, day 28): 46.7 ng/mL
